Measurements from different studies.
Each numbered part is a random draw from the data of one study; scales do not carry over between parts.

Study 1 — technique: aptamer microarray, sandwich; molecule type: DNA with 2'F-ANA; sample: in vitro; tested at: 200 nM; added: Cy3 exosite-II aptamer, 400 nM; direction: higher = stronger binding; sequence: GGTTGGTGTGGTTGG
Target: Prothrombin, mature alpha-thrombin (F2, Homo sapiens, UniProt P00734)
Setting: whole 15-mer aptamer, many near background
`2'F-ANA at 1 7 9 10 15`: “mean fluorescence intensity” 55.3 a.u.
For `2'F-ANA at 1 7 9 10 12 13 14 15`, “mean fluorescence intensity” read 69.2 a.u.
`2'F-ANA at 2 4 6 7 8 9 10 11 12 13 14` — result for “mean fluorescence intensity”: 63.3 a.u.
For `2'F-ANA at 1 2 4 9 10 11 12 14`, “mean fluorescence intensity” read 54.6 a.u.
For `2'F-ANA at 1 3 4 11 12 14`, “mean fluorescence intensity” read 85.5 a.u.
For `2'F-ANA at 4 5 6 7 9 10 11 12 13 14`, “mean fluorescence intensity” read 46.9 a.u.
Under “mean fluorescence intensity”, `2'F-ANA at 1 5 6 8 12 13` is recorded as 96 a.u.

Study 2 — technique: protein-binding microarray; molecule type: double-stranded DNA, one strand shown; sample: in vitro; tested at: 2540 nM top; setting: 60-bp whole probe; added: salmon DNA 0.4 mg/ml; baseline: random background probes; direction: higher = stronger binding; all sequences stand within: GCCTAGCAC … GTCTTGATTCGCTTGACGCTGCTG
Target: Interferon regulatory factor 3, full length, phosphomimetic (IRF3, Homo sapiens, UniProt Q14653, residues 1-427, S386D/S396D/S398D/S402D/T404D/S405D)
UniProt Q14653, sequence (whole entry, unmodified, looked up): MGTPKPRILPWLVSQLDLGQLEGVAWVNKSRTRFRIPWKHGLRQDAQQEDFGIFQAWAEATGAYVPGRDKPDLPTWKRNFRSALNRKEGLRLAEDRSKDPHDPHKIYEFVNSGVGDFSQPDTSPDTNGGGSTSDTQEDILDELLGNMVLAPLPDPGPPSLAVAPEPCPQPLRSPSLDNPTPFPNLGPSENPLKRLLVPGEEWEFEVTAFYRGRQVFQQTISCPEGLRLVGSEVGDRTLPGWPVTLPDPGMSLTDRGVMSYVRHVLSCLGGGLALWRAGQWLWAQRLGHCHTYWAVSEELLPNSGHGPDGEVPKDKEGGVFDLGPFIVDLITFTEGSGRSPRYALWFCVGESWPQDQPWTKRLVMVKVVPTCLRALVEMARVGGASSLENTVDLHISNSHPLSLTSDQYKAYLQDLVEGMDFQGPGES
`TTAGAACTGATACTGGATTAGTGCTAG`: “fitted relative affinity” 0.954 z-score.
`TTAGGGCTGGGGTATCGGTTAGTGCTA` — result for “fitted relative affinity”: -0.371 z-score.
`GACGGACTGAGGTTTCGGGACGTGCTA` — result for “fitted relative affinity”: 1.35 z-score.
Under “fitted relative affinity”, `GACGGTATCGACTTTCGGGATGTGCTA` is recorded as 1.59 z-score.
`TTAGATCTCAGTTTCGCTTAGTGCTAG`: “fitted relative affinity” 2.96 z-score.

Study 3 — technique: protein binding microarray; molecule type: double-stranded DNA, one strand shown; sample: in vitro; tested at: not given; baseline: not given; direction: higher = stronger binding
Target: Histone acetyltransferase KAT6A, both winged helices, GST fusion (KAT6A, Homo sapiens, UniProt Q92794, residues 1-181)
Setting: 8-mer, flanks averaged, mean of 2 arrays, mostly near background
Construct (chain): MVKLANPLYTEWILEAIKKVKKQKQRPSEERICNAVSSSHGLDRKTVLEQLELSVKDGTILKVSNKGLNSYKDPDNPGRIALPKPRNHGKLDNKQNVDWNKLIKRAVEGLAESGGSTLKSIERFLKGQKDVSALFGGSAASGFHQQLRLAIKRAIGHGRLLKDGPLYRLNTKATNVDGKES
With `ACTCATAA` the E-score was -0.0555.
For `CTTGAATA`, the E-score was -0.0723.
For `AGAATACA`, the E-score was 0.00299.
`CTCCCTGA` has an E-score of -0.21.
With `CGCTGGAG` the E-score was -0.0243.

Further values, each from its own experiment
For `PhoQ, residues 284 288 289 292 302 303 SSCCRF`, the fold induction was 0.829 (PhoP, residues 12 14 15 18 19 LHHVQ (Escherichia coli, UniProt P23836); Sort-seq, measured: YFP reporter; E. coli; PhoQ-PhoP variant library, added: 10 µM Mg2+; baseline: high Mg2+ state, higher = stronger signaling).

Excerpt of the above (study 1):
Under “mean fluorescence intensity”, `2'F-ANA at 1 5 6 8 12 13` is recorded as 96 a.u.
